Measured values collected from several papers.
Every numbered part comes from another study and shows a few of its results, in no order. Substitutions count along the parent as printed.

Series 1
Target: ABI1, truncated, D143A, DHFR fusion (Arabidopsis thaliana)
Technique: DHFR PCA, deep sequencing
Sample: yeast
Setting: methotrexate growth selection, single substitutions
With: (+)-ABA 0.0091 µM
Baseline: wild-type fitted maximum
Reading: higher = stronger binding
Starting sequence: PYL1, truncated, DHFR fusion (Arabidopsis thaliana); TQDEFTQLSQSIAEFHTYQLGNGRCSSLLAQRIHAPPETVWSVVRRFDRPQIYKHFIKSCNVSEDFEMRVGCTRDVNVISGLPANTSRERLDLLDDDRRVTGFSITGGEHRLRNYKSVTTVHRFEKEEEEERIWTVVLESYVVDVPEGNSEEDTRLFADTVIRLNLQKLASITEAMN; partner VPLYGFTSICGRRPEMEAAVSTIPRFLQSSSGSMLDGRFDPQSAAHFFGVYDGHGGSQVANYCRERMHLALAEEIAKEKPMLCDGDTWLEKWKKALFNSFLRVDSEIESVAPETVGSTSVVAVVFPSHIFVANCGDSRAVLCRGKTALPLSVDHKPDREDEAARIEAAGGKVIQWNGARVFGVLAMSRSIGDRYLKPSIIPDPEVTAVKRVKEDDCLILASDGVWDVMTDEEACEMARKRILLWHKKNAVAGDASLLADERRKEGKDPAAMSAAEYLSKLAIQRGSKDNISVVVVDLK
Substitution	relative binding score [%]
R98G	-2.15
V118W	0.303
T119E	-3.28
E38P	4.29
A158Q	29.9
M176G	8.73
L82D	6.54
S140V	-1.76
I172D	-5.58
E174Y	-2.97
Q51L	-0.914
E151Q	19.4
L169S	-3.76

Series 2
Target: CCNE1, cyclin fold, Cln2 fusion (human)
Technique: yeast growth competition, sequencing
Sample: yeast
Setting: strong parent motif
Baseline: not given
Reading: higher = stronger binding
Starting sequence: RBL2 docking peptide (human); STTRRRLFVENDS
Substitution	normalised enrichment score
STTRRRIFVENDS [L7I]	2.03
STTRRRLFVESDS [N11S]	5.88
WTTRRRLFVENDS [S1W]	4.61
STTRRRLFRENDS [V9R]	4.13
STTRRRLFVENDI [S13I]	5.66
STTRRLLFVENDS [R6L]	2.47
STTRHRLFVENDS [R5H]	0.648
STTRYRLFVENDS [R5Y]	0.84
STTRDRLFVENDS [R5D]	-0.237
STRRRRLFVENDS [T3R]	0.677
STTRRCLFVENDS [R6C]	2.65
STTRRRLFVECDS [N11C]	6.16
STTRRRGFVENDS [L7G]	-0.825
STTRRRLFVENDD [S13D]	6.67
STTRRRLMVENDS [F8M]	-0.144
STTRLRLFVENDS [R5L]	0.339
STTRRRLFVENDF [S13F]	6.32
STTRRRLFVPNDS [E10P]	3.09
TTTRRRLFVENDS [S1T]	5.8
HTTRRRLFVENDS [S1H]	5.25
STTRRRLFVENDP [S13P]	5.88
STTRRRLFVEGDS [N11G]	5.7
SATRRRLFVENDS [T2A]	5.6
STTRRRLFVENPS [D12P]	5.18
STTRRRLFVEYDS [N11Y]	6.32

Series 3
Target: RNA binding protein fox-1 homolog 2, RRM domain, GST-SBP tag (RBFOX2, Homo sapiens, UniProt O43251-10, residues 100-194)
Technique: RNA Bind-n-Seq
Form: RNA
Sample: in vitro
Concentration: 365 nM
Setting: natural RNA segment, single round, ends assumed
Baseline: no-protein control
Reading: higher = stronger binding
Constant ends, left off below: GGGAGUUCUACAGUCCGACGAUC … UGGAAUUCUCGGGUGCCAA
Target sequence (chain): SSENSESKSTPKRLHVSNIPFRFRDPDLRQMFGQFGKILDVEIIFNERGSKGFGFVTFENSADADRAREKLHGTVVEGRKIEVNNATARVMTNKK
Sequence	RBNS enrichment (R)
GAGCCGGGGACCAUGCAGCCCGAAACCUCCAGUCACUGCGCCCGGCAGGAGUCAGGAGCCAGGGACUGUGCAGCCUGGAACCUCCAGUCACUGUGCCCAGCAGGGUGGGC	0.31
CAAUAUUUGAUUUUUUAAAAAUAUACACAUAGGUGCUGCAUUUAUAUCUGCUGGUUUAAAUUCUGUCAUAUUUCACUUCUAGCCUUUUAGUAUGGCAAAUCAUAUUUUAC	1.19
AAGAAGAGACGAUGCCUGGACAAUGUCUUAUACAUAGGGAACAGAGAGGGAAUCAGAGGUGGCUUAGUUCCCUGAAGACAGCCUUAUGCGCUUAAUCCCUGCCUUUGAAA	0.647
UUCCUUCUUGAAAGCCUAAGAGUGCGUAUGCGUGUGUGUGUGUGUGUGUGUGUGUACGUGAGGCAGAAGAAUAUGACAGAUGUCAGCUUCUCCCUGUGUCAGAUGAUAUG	1.41
UUUAUAGUUACACAAGGACUUCUCCCAGCUGACCCUCAGGAUGCCCCAAGUCAGGAAGACCAUUAAGAAUAGGAGGAGAGGGCUCUGCCUCAACUUUCCUAGGAAAGAGC	0.236
UGAAUUCUUAGCUCCCUGAUUACACCUGCCACCUUGGAAUCAAGGACUCACACUUCUGACCCUGCCUGUCUUUUUGGGGUUUUUUUGAGUUGGAGUCUCGCUGUGUCGCC	1.63
UCAAACAGCAUCUUGCUCAGUUCUGUGAACAGAAGGCUUUGUUACUGAAGGAGGUGGAAGAGGAGUUUAGGGUGAAAAGGAGGAAGGGAUGGACAGACCCAGGUGAGGAG	1.08
ACAACCUAUUUUCUGGUUGUUGUCAGCUUGCCCCUGUCUAUACAGCUUGUUACGUGAAUUCAACAAGCUGUCUUCUUAACGGGAGCCCUCAUUCUGGUUUAUUUAUUAUG	0.269

Series 4
Target: RING finger protein unkempt homolog, zinc fingers 1-6, GST-SBP tag (UNK, Homo sapiens, UniProt Q9C0B0, residues 30-357)
Technique: RNA Bind-n-Seq
Form: RNA
Sample: in vitro
Concentration: not given
Setting: RNA with constant flanks, human and mouse sites, ends assumed
Baseline: input RNA pool
Reading: higher = stronger binding
Constant ends, left off below: GGGAGUUCUACAGUCCGACGAUC … CAACAGAGGAUUGAGCAUCA
Construct (chain): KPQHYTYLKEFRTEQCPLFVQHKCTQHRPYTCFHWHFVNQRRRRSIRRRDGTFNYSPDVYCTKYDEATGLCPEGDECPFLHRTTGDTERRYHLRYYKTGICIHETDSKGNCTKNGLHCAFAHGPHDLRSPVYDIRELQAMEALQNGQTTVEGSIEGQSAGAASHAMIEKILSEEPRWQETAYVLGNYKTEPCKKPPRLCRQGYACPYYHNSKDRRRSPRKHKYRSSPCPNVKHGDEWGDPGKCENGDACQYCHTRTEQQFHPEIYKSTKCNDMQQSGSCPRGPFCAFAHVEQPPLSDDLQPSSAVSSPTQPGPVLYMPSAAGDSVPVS
Sequence	bound/input enrichment [ratio]
ACUAACAGGCCAUUUAUUUCUCAGAAAAUCCAUUUUCCUGAUUUUUCUACCAGAGACAUACAUAGGAAUUAUGUUGAUUGUGUGCGAUGGUUAGGCGAUUUGAUACUUUCUAAGAGUGGC	0.251
CCUGUUGCUUUUGCUUGCUUCUCCAUUUAAUAGUUACUGAACUUUAUGCAUGUUGAUCUAUAUUGAUUUUCACUGCAGUUGAAUGAACAAAUUAUUUCAGUGUGACAGCCAUGACUCAAG	0.168
GACAAAGAGGUCCUCACAGAGGACAAGUGCCUCCAGCGCCAGAACCGUUAUGACGGGCAAGUGGCUGUGUUUGGCUCAGACCUGCAAGAGAAGCUGGGCAAGCAGAAGUAUUUCCUGGUG	0.0761
GUGAACCCAGUGGAAUUCUUCCGCCCUGAUAUUUCUCUGUUGGACAGAGACAAUGUUGGAUUAGUUUUACUCUUACAGCCCAAAAUUCCAUAUGCUGCCUGCCCUGCAAUCUGCGUAGCA	2.45
AAAAGAAAAGCCUCUAAAUAGGGUUUCAUGUGGUGCAGGGUUAUAAACCUGCUUUAUCUUUUAGGAUUAUUCCUAAAUGCAUCUUCUUUAUAAACUUGACUUGCUAUAUCAGCAAGAUAA	0.58
CUUGUCUACCAUAUUGGCCUCACCCCAGCCAAACUUCCUGACCUUGUGGAAAACAACCCUUUAGUCGCUAUAGAAAUGUUGCUGAAAUUAAUGCAGUCAAGCCAGAUCACUGAGUAUUUC	2.21
GUAACGCUGCUGCCCGGAGCCGCGUUGGAGGCCUCCCUUCCCAUUAAGUGCCUCUUUGCAUAGCACCGGCCCCACCCCCACGCUCACUGGUACUACUACAGAGCAGCGCGCCAUGGCGGG	0.274
UAUGAUCAAGUUCUCGUGGAGUCAGACAAUGAGAACCGAAUGGAGGAAAGCAAGGCUCUCUUUAGAACAAUUAUCACAUACCCCUGGUUCCAGAACUCCUCGGUUAUUCUGUUCUUAAAC	2.11

For quick reference, copied from above (series 2):
Substitution	normalised enrichment score
STRRRRLFVENDS [T3R]	0.677
SATRRRLFVENDS [T2A]	5.6
STTRRRLFRENDS [V9R]	4.13
